Assay results collected from several papers.
Each line is one published result; not all experiments were run side by side.
CNR1: Cannabinoid receptor 1 (CNR1, Homo sapiens, UniProt P21554)
Chain of UniProt P21554 (whole entry, unmodified, looked up): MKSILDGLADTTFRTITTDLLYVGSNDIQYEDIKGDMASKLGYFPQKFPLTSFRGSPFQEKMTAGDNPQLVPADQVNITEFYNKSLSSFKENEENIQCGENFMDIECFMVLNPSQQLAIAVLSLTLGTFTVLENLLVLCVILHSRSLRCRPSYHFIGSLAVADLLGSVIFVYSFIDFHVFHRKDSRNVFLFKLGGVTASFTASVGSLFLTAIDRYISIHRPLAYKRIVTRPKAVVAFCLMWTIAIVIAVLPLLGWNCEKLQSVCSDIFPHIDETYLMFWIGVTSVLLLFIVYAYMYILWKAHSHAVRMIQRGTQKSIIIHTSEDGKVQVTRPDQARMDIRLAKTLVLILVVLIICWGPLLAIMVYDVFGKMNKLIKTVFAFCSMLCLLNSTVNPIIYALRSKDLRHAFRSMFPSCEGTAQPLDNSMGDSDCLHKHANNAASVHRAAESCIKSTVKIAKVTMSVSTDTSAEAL
CNR1 L359V: Cannabinoid receptor 1 (CNR1, Homo sapiens, UniProt P21554, L359V)

| Compound | target | test | conditions | quantity | result |
| --- | --- | --- | --- | --- | --- |
| CC(=O)N/C(N)=N/C(=N\S(=O)(=O)c1ccc(C(F)(F)F)cc1)N1C[C@H](c2ccccc2)C(c2ccc(Cl)cc2)=N1 | CNR1 | β-arrestin recruitment, antagonist |  | IC50 | 0.021 nM |
| CC1=C[C@H]2c3c(O)cc(CCc4ccccc4)cc3OC(C)(C)[C@H]2CC1 | CNR1 | GTPγS binding, agonist, radiometric | cell membranes | EC50 | 406 nM |
| CCOC(=O)[C@](CC)(CCCSCCOCCOCCNc1ccc([N+](=O)[O-])c2nonc12)NC(=O)c1ccc(C2CC2)c(Cc2ccc(F)cc2)n1 | CNR1 | cAMP, agonist |  | EC50 | > 10000 nM |
| O=C(c1ccc2c(c1)c1ccccc1n2CCN1CCCCC1)c1cccc2ccccc12 | CNR1 | cAMP, agonist, BRET |  | EC50 | 110 nM |
| CCCCCn1cc(C(=O)c2ccc3c(c2)CC(C)(C)C3)c2ccccc21 | CNR1 L359V | G protein activation, agonist, BRET |  | EC50 | 537 nM |
| O=C(NC12CC3CC(CC(C3)C1)C2)c1nn(CCCCCF)c2ccccc12 | CNR1 | ligand displacement in cells, radioligand |  | Ki | 3.1 nM |
| O=C(c1ccc2c(c1)c1ccccc1n2CC1CCOCC1)c1cccc2ccccc12 | CNR1 | cAMP, agonist, BRET |  | EC50 | 7.59 nM |
| CCCCCn1cc(C(=O)c2ccc(OC)cc2)c2ccccc21 | CNR1 | ligand displacement, radioligand | cell membranes | IC50 | 15000 nM |
| CCCCCc1cc(OC(=O)C(NC(=O)CCC(=O)O)C(C)C)c2c(c1)OC(C)(C)C1CCC(C)=CC21 (stereo not shown) | CNR1 | ligand displacement, radioligand |  | IC50 | 1590 nM |
| CCCCCn1cc(C(=O)c2cccc3ccccc23)c2ccccc21 | CNR1 L359V | G protein activation, agonist, BRET |  | EC50 | 19.5 nM |
| CCCCn1c2ccccc2c2cc(C(=O)c3cccc4ccccc34)ccc21 | CNR1 | cAMP, agonist, BRET |  | EC50 | 129 nM |
| CCCCCn1cc(C(=O)c2cccc3c2CC(C)(C)C3)c2ccccc21 | CNR1 (Homo sapiens, UniProt P21554, L193I) | G protein activation, agonist, BRET |  | EC50 | 43.7 nM |
| CCCCCn1cc(C(=O)c2cccc3ccccc23)cc1-c1ccccc1F | CNR1 | ligand displacement in cells, radioligand |  | Ki | 37.4 nM |
| O=C(c1ccc2c(c1)c1ccccc1n2CCN1CCOCC1)c1cccc2ccccc12 | CNR1 | cAMP, agonist, BRET |  | EC50 | 25.7 nM |
| CCCCCn1cc(C(=O)Cc2ccccc2OC)c2ccccc21 | CNR1 | ligand displacement, radioligand | cell membranes | IC50 | 210 nM |
| CC(C)[C@H](NC(=O)c1cc(-c2ccc(F)cc2)nn1CCCCCF)C(N)=O | CNR1 | ligand displacement in cells, radioligand |  | Ki | 319 nM |
| CN1CCCCC1Cn1c2ccccc2c2cc(C(=O)c3cccc4ccccc34)ccc21 (stereo not shown) | CNR1 | cAMP, agonist, BRET |  | EC50 | 132 nM |
| COCCn1c(C)c(C)s/c1=N\C(=O)C1C(C)(C)C1(C)C | CNR1 |  |  | Ki | 114 nM |
| CCCCCCn1c2ccccc2c2cc(C(=O)c3cccc4ccccc34)ccc21 | CNR1 | cAMP, agonist, BRET |  | EC50 | 339 nM |

For quick reference, copied from above:
| Compound | target | test | conditions | quantity | result |
| --- | --- | --- | --- | --- | --- |
| CC(C)[C@H](NC(=O)c1cc(-c2ccc(F)cc2)nn1CCCCCF)C(N)=O | CNR1 | ligand displacement in cells, radioligand |  | Ki | 319 nM |
| CC1=C[C@H]2c3c(O)cc(CCc4ccccc4)cc3OC(C)(C)[C@H]2CC1 | CNR1 | GTPγS binding, agonist, radiometric | cell membranes | EC50 | 406 nM |
| CCCCCn1cc(C(=O)c2cccc3c2CC(C)(C)C3)c2ccccc21 | CNR1 (Homo sapiens, UniProt P21554, L193I) | G protein activation, agonist, BRET |  | EC50 | 43.7 nM |
